{"data": "Experimental data pooled from the literature", "organism": "Enterococcus faecalis"}
{"Structure (SMILES)": "CN(C)c1cc(CN)c(O)c2c1C[C@H]1C[C@H]3[C@H](N(C)C)C(O)=C(C(N)=O)C(=O)[C@@]3(O)C(O)=C1C2=O", "test system": "JH2-2(pMV158), Tet L efflux", "MIC": "4 mg/L"}
{"Structure (SMILES)": "Cc1ccc2ccc3ccc(C)nc3c2n1.Cc1ccc2ccc3ccc(C)nc3c2n1.O.[Cl-].[Cl-].[Cl-].[Yb+3]", "MIC": "125 mg/L"}
{"Structure (SMILES)": "CCc1[nH]c(C(=O)N[C@@H]2CCN(c3nnc(C(C)(C)O)s3)C[C@@H]2OC)nc1Cl", "test system": "ATCC 51299", "MIC": "0.5 mg/L"}
{"Structure (SMILES)": "CN(C)c1cc(CNCc2ccncc2)c(O)c2c1C[C@H]1C[C@H]3[C@H](N(C)C)C(O)=C(C(N)=O)C(=O)[C@@]3(O)C(O)=C1C2=O", "test system": "JH2-2(pMV158), Tet L efflux", "MIC": "2 mg/L"}
{"Structure (SMILES)": "COc1cc(Cc2cnc(N)nc2N)cc(/C=C/C(=O)N2N=Cc3ccccc3C2c2ccccc2)c1OC (stereo not shown)", "test system": "ATCC 29212", "setting": "with: folinic acid 0.1 µg/mL", "MIC": "0.125 to 0.25 mg/L"}
{"Structure (SMILES)": "Cc1cc2[nH]c(C(=O)Nc3ccccc3C)c(CN3CCOCC3)c2s1", "assay": "broth microdilution", "test system": "ATCC 29212, LB broth", "setting": "20 h", "MIC": "> 200 µM"}
{"Structure (SMILES)": "N#Cc1ccc2cccc(O)c2n1", "assay": "microbial growth, agar dilution", "test system": "ATCC29212", "MIC": "> 1500 µM"}
{"Structure (SMILES)": "CNC(CC(C)C)C(=O)NC1C(=O)NC(CC(N)=O)C(=O)NC2C(=O)NC3C(=O)NC(C(=O)NC(C(=O)NCCNC(=N)N)c4cc(O)cc(O)c4-c4cc3ccc4O)C(O)c3ccc(c(Cl)c3)Oc3cc2cc(c3OC2OC(CO)C(O)C(O)C2OC2CC(C)(N)C(O)C(C)O2)Oc2ccc(cc2Cl)C1O (stereo not shown)", "assay": "broth microdilution", "test system": "BM 4166 VanA", "MIC": "16 mg/L"}
{"Structure (SMILES)": "CN(C)c1cc(CNc2ccccc2)c(O)c2c1C[C@H]1C[C@H]3[C@H](N(C)C)C(O)=C(C(N)=O)C(=O)[C@@]3(O)C(O)=C1C2=O", "test system": "JH2-2(pMV158), Tet L efflux", "MIC": "2 mg/L"}
{"Structure (SMILES)": "Oc1c(Cl)cc(Cl)c2cccnc12", "assay": "microbial growth, agar dilution", "test system": "ATCC29212", "MIC": "37.4 µM"}
{"Structure (SMILES)": "COCCOC(=O)NCc1cc(N(C)C)c2c(c1O)C(=O)C1=C(O)[C@]3(O)C(=O)C(C(N)=O)=C(O)[C@@H](N(C)C)[C@@H]3C[C@@H]1C2", "test system": "JH2-2(pMV158), Tet L efflux", "MIC": "4 mg/L"}
{"Structure (SMILES)": "CNC(CC(C)C)C(=O)NC1C(=O)NC(CC(N)=O)C(=O)NC2C(=O)NC3C(=O)NC(C(=O)NC(C(=O)NC(CCCNC(N)=O)C(=O)OC)c4cc(O)cc(O)c4-c4cc3ccc4O)C(O)c3ccc(c(Cl)c3)Oc3cc2cc(c3OC2OC(CO)C(O)C(O)C2OC2CC(C)(N)C(O)C(C)O2)Oc2ccc(cc2Cl)C1O (stereo not shown)", "assay": "broth microdilution", "test system": "BM 4166 VanA", "MIC": "63 mg/L"}
{"Structure (SMILES)": "CC1=C[C@@H](C)[C@H]2[C@@H]3C(=O)C(Cl)(Cl)C(=O)[C@H](C)C(=O)O[C@@H](C)/C=C/C=C\\[C@@H](C)[C@@H]3C=C[C@@H]2C1", "assay": "microbial growth, broth dilution", "MIC": "0.025 mg/L"}
{"Structure (SMILES)": "CNCc1cc(N(C)C)c2c(c1O)C(=O)C1=C(O)[C@]3(O)C(=O)C(C(N)=O)=C(O)[C@@H](N(C)C)[C@@H]3C[C@@H]1C2", "test system": "JH2-2(pMV158), Tet L efflux", "MIC": "8 mg/L"}
{"Structure (SMILES)": "COc1ccc(CC2c3ccccc3C=NN2C(=O)/C=C/c2cc(Cc3cnc(N)nc3N)cc(OC)c2OC)cc1 (stereo not shown)", "assay": "microbial growth, broth dilution", "test system": "ATCC29212", "MIC": "4 to 8 mg/L"}
{"Structure (SMILES)": "CN(C)c1cc(CN2CCCCC2)c(O)c2c1C[C@H]1C[C@H]3[C@H](N(C)C)C(O)=C(C(N)=O)C(=O)[C@@]3(O)C(O)=C1C2=O", "test system": "JH2-2(pMV158), Tet L efflux", "MIC": "0.125 mg/L"}
{"Structure (SMILES)": "COc1cc(Cc2cnc(N)nc2N)cc(/C=C/C(=O)N2N=Cc3ccccc3C2Cc2ccc(C)cc2)c1OC (stereo not shown)", "assay": "microbial growth, broth dilution", "test system": "ATCC29212", "MIC": "0.5 to 1 mg/L"}
{"Structure (SMILES)": "CNC(CC(C)C)C(=O)NC1C(=O)NC(CC(N)=O)C(=O)NC2C(=O)NC3C(=O)NC(C(=O)NC(C(=O)NCCCNC(=N)N)c4cc(O)cc(O)c4-c4cc3ccc4O)C(O)c3ccc(c(Cl)c3)Oc3cc2cc(c3OC2OC(CO)C(O)C(O)C2OC2CC(C)(NCc3ccc(-c4ccc(Cl)cc4)cc3)C(O)C(C)O2)Oc2ccc(cc2Cl)C1O (stereo not shown)", "test system": "VanB ATCC 51299", "MIC": "0.04 mg/L"}
{"Structure (SMILES)": "CCCCCCCCCCCCCCCCCCSCC1OC(OC2C(N)CC(N)C(OC3OC(CN)C(O)CC3N)C2O)C(O)C(N)C1O (stereo not shown)", "test system": "ATCC 29212", "MIC": "150 mg/L"}
{"Structure (SMILES)": "COc1c2c(cc3c1[C@@H]1Oc4c(ccc(O)c4CC=C(C)C)[C@@H]1CO3)OC(C)(C)C=C2", "test system": "ATCC 29212", "MIC": "128 mg/L"}
{"Structure (SMILES)": "Oc1ccccc1C1Nc2ccccc2C2=[O+][Cu-2]3([Cl])[O]c4ccccc4C=[N+]3N21 (stereo not shown)", "assay": "broth microdilution", "test system": "ATCC 29213", "setting": "24 h", "MIC": "256 mg/L"}
{"Structure (SMILES)": "c1ccc(CN2CCOCCOCCN(CCCCCCCCCCCCCCN3CCOCCOCCN(CCCCCCCCCCCCCCN4CCOCCOCCN(Cc5ccccc5)CCOCCOCC4)CCOCCOCC3)CCOCCOCC2)cc1", "assay": "microbial growth", "MIC": "1.5 µM"}
{"Structure (SMILES)": "CC(C)C(O)C(NC(=O)[C@H](Cc1ccc(O)cc1)NC(=O)C(Cc1ccc(O)cc1)[N+](C)(C)C)C(=O)N[C@@H](C)C(=O)O (stereo partly shown)", "assay": "CLSI broth microdilution", "test system": "ATCC 19433", "MIC": "> 100 µM"}
{"Structure (SMILES)": "COc1cc(Cc2cnc(N)nc2N)cc(/C=C/C(=O)N2N=Cc3ccccc3C2c2cc(C)cc(C)c2)c1OC (stereo not shown)", "assay": "microbial growth, broth dilution", "test system": "ATCC29212", "MIC": "0.25 to 0.5 mg/L"}
{"Structure (SMILES)": "C/C(=N/NC(=N)N)c1nnn(-c2ccc(C#CC(C)(C)O)cc2)c1C", "assay": "microbial growth, broth dilution", "test system": "ATCC51299", "MIC": "16 mg/L"}
{"Structure (SMILES)": "C[n+]1ccc(/C=C2\\Sc3ccccc3N2CCCN2CCCC2)c2ccccc21", "assay": "microbial growth, broth dilution", "test system": "ATCC29212", "MIC": "32 mg/L"}
{"Structure (SMILES)": "COc1cc(Cc2cnc(N)nc2N)cc(/C=C/C(=O)N2N=Cc3ccccc3C2CCC(F)(F)F)c1OC (stereo not shown)", "assay": "microbial growth, broth dilution", "test system": "ATCC29212", "MIC": "0.03 to 0.125 mg/L"}
{"Structure (SMILES)": "CC(=NNC(=N)N)c1nnn(-c2ccc(C#CC3(O)CCCCC3)cc2)c1C", "assay": "microbial growth, broth dilution", "test system": "ATCC51299", "MIC": "8 mg/L"}
{"Structure (SMILES)": "CN(C)c1cc(CN2CCc3ccccc3C2)c(O)c2c1C[C@H]1C[C@H]3[C@H](N(C)C)C(O)=C(C(N)=O)C(=O)[C@@]3(O)C(O)=C1C2=O", "test system": "JH2-2(pMV158), Tet L efflux", "MIC": "0.5 mg/L"}
{"Structure (SMILES)": "Oc1c(Br)cc(Br)c2nc3cc(C(F)(F)F)ccc3nc12", "assay": "microbial growth, broth dilution", "test system": "OG1RF", "MIC": "0.78 µM"}
{"Structure (SMILES)": "CNC(CC(C)C)C(=O)NC1C(=O)NC(CC(N)=O)C(=O)NC2C(=O)NC3C(=O)NC(C(=O)NC(C(=O)NC(CCCNC(=N)N)C(N)=O)c4cc(O)cc(O)c4-c4cc3ccc4O)C(O)c3ccc(c(Cl)c3)Oc3cc2cc(c3OC2OC(CO)C(O)C(O)C2OC2CC(C)(N)C(O)C(C)O2)Oc2ccc(cc2Cl)C1O (stereo not shown)", "assay": "broth microdilution", "test system": "BM 4166 VanA", "MIC": "16 mg/L"}
{"Structure (SMILES)": "CN(C)c1cc(CNC(=O)OCC(C)(C)C)c(O)c2c1C[C@H]1C[C@H]3[C@H](N(C)C)C(O)=C(C(N)=O)C(=O)[C@@]3(O)C(O)=C1C2=O", "test system": "JH2-2(pMV158), Tet L efflux", "MIC": "2 mg/L"}
{"Structure (SMILES)": "COc1cc(Cc2cnc(N)nc2N)cc(/C=C/C(=O)N2N=Cc3ccccc3C2C=C(C)C)c1OC (stereo not shown)", "test system": "ATCC 29212", "setting": "racemate", "MIC": "0.06 to 0.125 mg/L"}
{"Structure (SMILES)": "CC(=O)[O][Ag]=[c]1n(C)ccn1CC(O)c1ccccc1 (stereo not shown)", "assay": "broth dilution", "test system": "ATCC 19433", "setting": "18 h, 37 °C", "MIC": "20 mg/L"}
{"note": "A few entries again:"}
{"Structure (SMILES)": "CN(C)c1cc(CN)c(O)c2c1C[C@H]1C[C@H]3[C@H](N(C)C)C(O)=C(C(N)=O)C(=O)[C@@]3(O)C(O)=C1C2=O", "test system": "JH2-2(pMV158), Tet L efflux", "MIC": "4 mg/L"}
{"Structure (SMILES)": "CN(C)c1cc(CNc2ccccc2)c(O)c2c1C[C@H]1C[C@H]3[C@H](N(C)C)C(O)=C(C(N)=O)C(=O)[C@@]3(O)C(O)=C1C2=O", "test system": "JH2-2(pMV158), Tet L efflux", "MIC": "2 mg/L"}
{"Structure (SMILES)": "CCc1[nH]c(C(=O)N[C@@H]2CCN(c3nnc(C(C)(C)O)s3)C[C@@H]2OC)nc1Cl", "test system": "ATCC 51299", "MIC": "0.5 mg/L"}
{"Structure (SMILES)": "COc1cc(Cc2cnc(N)nc2N)cc(/C=C/C(=O)N2N=Cc3ccccc3C2CCC(F)(F)F)c1OC (stereo not shown)", "assay": "microbial growth, broth dilution", "test system": "ATCC29212", "MIC": "0.03 to 0.125 mg/L"}
